Results gathered from unrelated publications.
Parts stem from different laboratories: compare values within a part only.

Block 1
Target: Sal-like protein 4, full length isoform B (SALL4, Homo sapiens, UniProt Q9UJQ4-2, residues 1-616)
Method: universal PBM
Molecule type: double-stranded DNA, one strand shown
Medium: in vitro
Concentration: not given
Notes: 8-mer, flanks averaged, mean of replicates
Reading: higher = stronger binding
Residues (chain): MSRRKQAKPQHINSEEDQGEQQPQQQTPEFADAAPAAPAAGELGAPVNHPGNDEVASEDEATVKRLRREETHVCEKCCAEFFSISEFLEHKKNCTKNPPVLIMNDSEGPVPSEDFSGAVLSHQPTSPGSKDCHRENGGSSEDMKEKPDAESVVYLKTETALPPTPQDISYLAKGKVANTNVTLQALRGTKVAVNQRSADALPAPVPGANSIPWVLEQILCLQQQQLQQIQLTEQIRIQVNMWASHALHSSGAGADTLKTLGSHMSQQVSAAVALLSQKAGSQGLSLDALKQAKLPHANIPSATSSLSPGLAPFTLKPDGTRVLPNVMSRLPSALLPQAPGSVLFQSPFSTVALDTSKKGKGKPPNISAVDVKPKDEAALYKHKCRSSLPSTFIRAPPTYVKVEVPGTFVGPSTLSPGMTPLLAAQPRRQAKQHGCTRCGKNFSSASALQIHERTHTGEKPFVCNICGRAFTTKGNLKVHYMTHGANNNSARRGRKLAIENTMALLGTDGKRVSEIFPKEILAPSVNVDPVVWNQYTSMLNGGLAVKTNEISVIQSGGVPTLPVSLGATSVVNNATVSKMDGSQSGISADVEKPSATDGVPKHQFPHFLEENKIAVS
For `ATTGGTGC`, the E-score was -0.129.
`AATGGAAC` gave an E-score of 0.0445.
With `ATGATCGG` the E-score was 0.103.
`AAGCCTAA` gave an E-score of 0.035.
`ACCATGTA` gave an E-score of 0.104.
The E-score of `GCTCTGCC` is reported as -0.306.
`CTCCGTAC` gave an E-score of -0.253.
The E-score of `CTGGCCCC` is reported as -0.401.
The E-score of `ACAATGGT` is reported as 0.104.
With `GTCTCTGA` the E-score was -0.148.
With `CGCCCCAA` the E-score was -0.17.
With `GACAGATC` the E-score was 0.00755.
`GGTCTTTA` gave an E-score of 0.227.
`TAGACCTA` has an E-score of 0.119.
With `TAATGACA` the E-score was 0.224.
`AAATCCTA` gave an E-score of 0.139.
The E-score of `CATTGTAA` is reported as 0.19.
`CCCGTGTA` gave an E-score of -0.0936.
For `CCATTGCA`, the E-score was 0.112.
For `CGGATCCC`, the E-score was -0.306.
`CTCTATTC` has an E-score of -0.0019.
For `CCGCTTGA`, the E-score was -0.244.

Block 2
Target: Interferon regulatory factor 7, full length, phosphomimetic (IRF7, Homo sapiens, UniProt Q92985, residues 1-503, S101K/S471D/S472D/S475D/S476D/S477D/S483D/S484D/S487D)
Method: protein-binding microarray
Molecule type: double-stranded DNA, one strand shown
Medium: in vitro
Concentration: 250 nM
Notes: 60-bp whole probe
With: salmon DNA 0.4 mg/ml
Relative to: random background probes
Reading: higher = stronger binding
Shared flanks, not repeated: GCCTAGCAC … GTCTTGATTCGCTTGACGCTGCTG
Construct (chain): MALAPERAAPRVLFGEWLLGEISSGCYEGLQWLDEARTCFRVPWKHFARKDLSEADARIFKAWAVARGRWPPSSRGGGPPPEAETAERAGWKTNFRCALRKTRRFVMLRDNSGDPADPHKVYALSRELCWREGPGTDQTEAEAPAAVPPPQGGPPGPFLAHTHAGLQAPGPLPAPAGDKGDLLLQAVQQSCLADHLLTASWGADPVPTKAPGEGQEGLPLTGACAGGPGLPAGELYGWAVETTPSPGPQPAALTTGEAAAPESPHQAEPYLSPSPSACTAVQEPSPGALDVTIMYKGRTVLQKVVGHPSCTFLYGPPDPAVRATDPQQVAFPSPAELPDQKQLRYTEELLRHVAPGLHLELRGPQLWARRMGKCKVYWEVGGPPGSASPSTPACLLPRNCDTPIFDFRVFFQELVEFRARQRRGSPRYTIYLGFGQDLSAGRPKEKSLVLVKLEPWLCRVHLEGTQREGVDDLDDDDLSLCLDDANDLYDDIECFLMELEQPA
For `TCATTTGACTCTTTCTGACTGTGCTAG`, the log fluorescence was 0.992 z-score.
`TTAGGACTTGGTCTCGGTTAGTGCTAG` has a log fluorescence of 1.62 z-score.
With `TCATTTTTACTTTCTGAACTGTGCTAG` the log fluorescence was 1.44 z-score.
For `TCACTTTACTTTCTTTTACTGTGCTAG`, the log fluorescence was 2.18 z-score.
With `TTAGGTATCGACCATCGGTTAGTGCTA` the log fluorescence was -0.244 z-score.
The log fluorescence of `TCAGCTTCCTAATTCTCACTGTGCTAG` is reported as 0.721 z-score.
`GACGATTTCAGCATCGAGACGTGCTAG` has a log fluorescence of 0.138 z-score.
For `TTAGGTTTCGGTTCAGGTTAGTGCTAG`, the log fluorescence was 13.8 z-score.
`GACGGTACCCTTATCCTGACGTGCTAG` gave a log fluorescence of 0.0515 z-score.
`TCAACTTTCAGTTCTCCACTGTGCTAG` has a log fluorescence of 1.37 z-score.
`TCACCTTTCACTTTAACACTGTGCTAG` has a log fluorescence of 1.59 z-score.
The log fluorescence of `CTGGCTGGGGTGGTGGCAGTGTGCTAG` is reported as -1.48 z-score.
For `TTAGGTATCGACTTTCGGTCAGTGCTA`, the log fluorescence was 1.69 z-score.
`TTAGGTTTCCTTCTCCTATAGTGCTAG` has a log fluorescence of 3 z-score.
`ATATATATATTGTTAGTGTAGTGCTAG` gave a log fluorescence of 0.583 z-score.
`TCATTTTGTGTTTTCATACTGTGCTAG` gave a log fluorescence of 1.97 z-score.
The log fluorescence of `GAATGAATGGACATTTCTTCGTGCTAG` is reported as -0.172 z-score.
With `GACGGTAACCTTCTCCTGACGTGCTAG` the log fluorescence was -0.552 z-score.
With `AACGGACTGGACTTTCGGGACGTGCTA` the log fluorescence was -0.64 z-score.
The log fluorescence of `TCATTTTTCTACTTCTCACTGTGCTAG` is reported as 2.36 z-score.
`TCAAGTGTGTGTCTGATACTGTGCTAG` has a log fluorescence of -0.629 z-score.

Block 3
Target: Ras GTPase-activating protein-binding protein 1, RRM domain (G3BP1, Homo sapiens, UniProt Q13283)
Sequence of UniProt Q13283 (whole entry, looked up): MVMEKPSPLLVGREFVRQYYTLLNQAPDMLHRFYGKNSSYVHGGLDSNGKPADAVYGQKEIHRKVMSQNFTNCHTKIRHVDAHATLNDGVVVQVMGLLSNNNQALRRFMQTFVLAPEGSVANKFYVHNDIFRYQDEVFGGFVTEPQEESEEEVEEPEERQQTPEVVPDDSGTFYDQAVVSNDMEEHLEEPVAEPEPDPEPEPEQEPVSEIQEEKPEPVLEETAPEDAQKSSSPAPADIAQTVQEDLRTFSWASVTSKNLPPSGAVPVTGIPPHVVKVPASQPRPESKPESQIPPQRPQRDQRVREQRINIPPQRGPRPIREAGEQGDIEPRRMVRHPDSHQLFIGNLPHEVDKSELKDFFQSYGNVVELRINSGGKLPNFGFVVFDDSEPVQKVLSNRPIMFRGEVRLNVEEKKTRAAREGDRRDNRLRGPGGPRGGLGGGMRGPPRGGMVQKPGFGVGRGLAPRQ
Method: RNA Bind-n-Seq
Molecule type: RNA
Medium: in vitro
Concentration: 1 µM
Notes: whole 134-nt RNA, ends assumed
With: 150 mM KCl
Relative to: input library
Reading: higher = stronger binding
`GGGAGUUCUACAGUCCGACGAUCUCCUGUGCUACACAUCGUAUGUACCGAAUCGGGGUUUUUGGGGAAAAAGGGGAAAGGGGAAAGUAUUAUGUUACGCCGUUCGGAUCUGCAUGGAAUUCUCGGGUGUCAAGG` gave a log2 enrichment of 1.2.
`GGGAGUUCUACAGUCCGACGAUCCCUGUGCUACACAUCGUAUGUACCGAAUCGGGGCCCCCCGGGCCCCCCGGGGCCCCCCGGAAAGUAUUAUGUUACGCCGUUCGGAUCUGCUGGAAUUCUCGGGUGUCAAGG` gave a log2 enrichment of -0.766.
With `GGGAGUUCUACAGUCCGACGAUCGGCAAGAGGAGGAACGACGUAGAAGAGAGGAAGAGAUGAUGAUUCGUCAACGUGAGAUGGAAGAACAAAUGAGGCGCCAAAGAGAGGAAAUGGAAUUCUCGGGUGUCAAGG` the log2 enrichment was -0.0631.
With `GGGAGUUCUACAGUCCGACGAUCACCAUGCAGGUGGGCAUCUUUGGGAAAAGGGGCAAGGGGGGGAUAGGGAGGGGGGUAACACUUUGGGAACAGGUGGUCCCAGGUCGUUUCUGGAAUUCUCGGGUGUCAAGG` the log2 enrichment was -0.35.
`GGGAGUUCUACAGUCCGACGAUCUCCUGUGCUACACAUCGUAUGUACCGAAUCGGGGUUUUUUUGGGGAAAGGGGAAAGGGGAAAGUAUUAUGUUACGCCGUUCGGAUCUGCAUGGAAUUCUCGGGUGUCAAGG` has a log2 enrichment of 0.661.
The log2 enrichment of `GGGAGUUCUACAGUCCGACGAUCAAGUCCUGUGCUACACAUCGUAUGUACCGAAUCGGGGAAAGGGGUGGGGAAAGGGGAAAGUAUUAUGUUACGCCGUUCGGAUCUGCACUUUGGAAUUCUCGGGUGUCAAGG` is reported as 0.986.
With `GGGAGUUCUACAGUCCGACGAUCCAAGUCCUGUGCUACACAUCGUAUGUACCGAAUCGGUGGUUUUUUUGGAAAAAGGAAAGUAUUAUGUUACGCCGUUCGGAUCUGCACUUCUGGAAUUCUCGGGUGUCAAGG` the log2 enrichment was -0.197.
For `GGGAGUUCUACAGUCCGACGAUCAUCAUUUCAUUUUUAUAAUUAUACAUUAGACAUUGGCACUUGUGUAAAACUGUCCCUGCAGAUUGAGCAGGAAGUAAAAACAAAUGGAAAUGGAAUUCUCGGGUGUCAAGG`, the log2 enrichment was -0.319.
`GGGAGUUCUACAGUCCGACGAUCUGGCCCAGGUGGCAUGCGGGGAGGAAGAGGUGGCCUCAUGGAUCGUGGUGGUCCCGGUGGAAUGUUCAGAGGUGGCCGUGGUGGAGACAGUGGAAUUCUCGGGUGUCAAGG` has a log2 enrichment of 0.608.
`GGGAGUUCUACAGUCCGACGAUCUGGGAGGUGGAUUUUGUUUAUUUUUUUAGCUCAUUUCCAGGGGUGGGAAUUUUUUUUUAAUAUGUUUCAUGAAUAAAGUUGUUUUUGAAAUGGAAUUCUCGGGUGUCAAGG` gave a log2 enrichment of 1.06.

Block 4
Cell line: yeast with cyclin D1-Cln2 chimera
Effect on: cell growth
Mode: binder
Method: competitive growth deep sequencing
Molecule type: peptide
Concentration: concentration not given
Notes: peptide tiling library
Reading: direction not given
For `ELGMEHCEKFEISETS`, “growth enrichment score” read 1.1.
`NESHLDKEHDAVEVAD`: “growth enrichment score” 1.
`PPTFLSTGEIHAFLSS` — result for “growth enrichment score”: 1.1.
`SPREGHMMDALYAQVK` — result for “growth enrichment score”: 1.27.
For `ISRLFPPRTPGWHQLQ`, “growth enrichment score” read -1.96.
Under “growth enrichment score”, `VSRNLRSSLKSSLHTL` is recorded as -0.798.
For `SFLIEYEFLIPPSLKP`, “growth enrichment score” read 0.891.
Under “growth enrichment score”, `KVRRNLFNQELLSP` is recorded as -0.171.
Under “growth enrichment score”, `NLEPNAEFDKRTEFIT` is recorded as 1.52.
`NRLLKLFTRCLTPLVP`: “growth enrichment score” -0.887.
`EHCRVLFLDHVMYTIH`: “growth enrichment score” 0.0529.
For `ATNSSHTDAHEILVSD`, “growth enrichment score” read 1.28.

Excerpt of the above (block 1):
`CTCCGTAC` gave an E-score of -0.253.
`AATGGAAC` gave an E-score of 0.0445.
With `ATGATCGG` the E-score was 0.103.
For `CGGATCCC`, the E-score was -0.306.
`TAGACCTA` has an E-score of 0.119.
The E-score of `CATTGTAA` is reported as 0.19.
